# Measurements pooled from the literature.
# Every numbered part comes from another study and shows a few of its results, in no order. Positions count from the first letter of the parent shown.

# Set 1
# Target: FOSB, bZIP domain (human)
# Technique: DHFR protein complementation
# Medium: yeast
# Setting: single substitutions, most at no-binding floor
# Relative to: wild-type JUN-FOS pair
# Direction: higher = stronger binding
# Parent: JUN, bZIP domain (human); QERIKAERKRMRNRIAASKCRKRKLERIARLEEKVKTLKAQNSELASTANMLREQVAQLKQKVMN; partner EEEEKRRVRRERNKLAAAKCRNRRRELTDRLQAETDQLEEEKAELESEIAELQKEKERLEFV
Substitution,binding fitness [natural log]
I28K,-0.274
Q58R,-0.178
E44L,-0.109
S43N,-0.0497
L38G,-1.02
R30S,0.0156
M51G,-0.189
A29K,-0.303
E33A,-0.165
M51C,-0.271
A29D,-0.204
A46S,-0.112
R30F,0.0494
K39Y,-0.776
Q55G,-0.722
V56R,-1.14
A49V,-0.132
N42V,0.129
E33V,-0.336
A29R,-0.118
I28A,-0.199
V35K,-0.0676
N42T,-0.116
K34T,-0.105
I28V,-0.117

# Set 2
# Target: CCNA1, cyclin fold, Cln2 fusion (human)
# Technique: yeast growth competition, sequencing
# Medium: yeast
# Setting: weak parent motif
# Relative to: not given
# Direction: higher = stronger binding
# Parent: CDC6 docking peptide (human); TLKGRRLVFDNQL
Substitution,normalised enrichment score
TLKGRRLKFDNQL [V8K],0.428
TLKGRRLVMDNQL [F9M],0.46
NLKGRRLVFDNQL [T1N],-0.00523
TCKGRRLVFDNQL [L2C],0.2
TVKGRRLVFDNQL [L2V],0.281
TLKGRRLVFLNQL [D10L],0.154
TLKGRRLVIDNQL [F9I],0.413
TLKGRRLVFDNQR [L13R],0.232
TLKGRWLVFDNQL [R6W],-0.378
TLKGRRWVFDNQL [L7W],0.463
TLKNRRLVFDNQL [G4N],0.0857
WLKGRRLVFDNQL [T1W],0.548
TLKGRRLEFDNQL [V8E],0.334
TLKGRRLVFINQL [D10I],0.388
TLKGRRLVFMNQL [D10M],0.41
TLKGRRLVRDNQL [F9R],0.121
TLKGRRLVFRNQL [D10R],0.222
TLQGRRLVFDNQL [K3Q],0.307
TLKGTRLVFDNQL [R5T],0.35

# Set 3
# Target: RNA binding protein fox-1 homolog 2, RRM domain, GST-SBP tag (RBFOX2, Homo sapiens, UniProt O43251-10, residues 100-194)
# Technique: RNA Bind-n-Seq
# Form: RNA
# Medium: in vitro
# Tested at: 365 nM
# Setting: natural RNA segment, single round, ends assumed
# Relative to: no-protein control
# Direction: higher = stronger binding
# Constant ends, left off below: GGGAGUUCUACAGUCCGACGAUC … UGGAAUUCUCGGGUGCCAA
# Residues (chain): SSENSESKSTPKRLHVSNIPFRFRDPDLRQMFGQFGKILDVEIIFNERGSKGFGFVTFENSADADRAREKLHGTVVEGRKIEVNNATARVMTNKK
Oligonucleotide,RBNS enrichment (R)
GCUGUGGGGAGUCCCAGUGGUGGAGGGGACACAGCGGGCCCGUUCCCAAGUCCGUGAUUUCAGUUUUUCUUUUAUGGUUUCAUUGUUUGUAGUUGCCUUUGGGUUUUUGU,3.02
UCUUUACCUACUGCACUAACAAUGGCAAGGGGGGUAUUCUUUAUAUGUUGCCUUGUUUAACUACAGUUCUUUUCAUUCCAUCACUUUAGGUGAUGGGUAAGAUUUUUGAA,0.4
CCCGAGAACUAUGAUCUUCCUAUCUGUCGCCUUGCCCACAGCUUCAGGAUGCUCUAAGUUGGAGUCAGCCGGGCUCGUUCAUCACUUCUUCGGUUGCUUUGCACCAGUAU,0.769
ACAGAAUUUCAGUAGCUUACAUAAAUCCUGAGAAUGUGAUUGGUUUUAAAAAGUAAGGUUUAAAGUCACAGCAGAUAGGAGAUUAAUGUUUUAUUGCCACAGAAAUUCUC,0.535
CAAGCAGCUACCUACCUUGACUCCCAUAGCUUAGGACACAAGCCAGCUCUGAGCUACAUGAAGUAAUGAGCAGAGAUGAGUACUCACAGUCCAUCACCAGGCCAGCUUCU,0.352
AACCGGCAUGGAUGUGACCGGAAUGCCAUGGCCUAUCCAAGAGGAAAGGUGACCUCAGAUGCACCUGUUUUCAGCCUGUGCUUUUGUUCUAGUAAAGACAUUUAAACCAA,0.354
CCUGUGCUGGGGGUAGGGAGCCAACAGCACCCGUUUGUACAUAAAGGUCAUUCGUAUGUCACAUGUUUUAAACUGGGGUCUCUGUGUGUAUUUGUGUGUGUGUUCUACCU,0.745
GUUACUGGAUUAGCUCCCUCCUCCUGUGUGAUGGUACCAUGCAUAGAGUCAAUCAAAUCCUUGUGAUGUUUUGUAUGGACUUUGACAAUAUGUAAAUAAUGUGUAAAGCC,0.841
CAGUUUGCUCCCUGUUGACAUAGGGAAAAACUGAGUGUCAUAGGCAGUAUUUCACAGUGGACAUUUCACAGUAUUUCACAGUCUUGCCUGUGGCCUGCUGGCUGCAUGCU,1.9
UACAGUGAUAUAUAUAGUGUUCUUAAAACGAUGUGUCUUGCUGCAGAAAUACUGAAAAAAUGCUGGUCAGCUUUAUCUUCCUAUGUCCUUUAUUAAAACCGUAUACAUAA,0.68
AGCAGGAUGGGGGUGGGGGACCCCGACUGACCUCACAGUUGGCUCUGAGGAGAGGGGGGAAAUUUUAAAUUCUUUAACAUUUUUGUUUCAAUUUCUGUCUUUUGUAAGAC,0.723
GAAGGCCAGGAGCCCUGUGCUCUUGACAUCACUGUACUCCCUCUCCCUCCCCGCAACCCUGCCCCACCUUGCAUCCAGGGUAUGGUGUAAAUAAACCUGUGUUGCCAUGG,0.537

# Set 4
# Target: ABI1, truncated, D143A, DHFR fusion (Arabidopsis thaliana)
# Technique: DHFR PCA, deep sequencing
# Medium: yeast
# Setting: methotrexate growth selection, single substitutions
# Together with: (+)-ABA 4.8 µM
# Relative to: wild-type fitted maximum
# Direction: higher = stronger binding
# Parent: PYL1, truncated, DHFR fusion (Arabidopsis thaliana); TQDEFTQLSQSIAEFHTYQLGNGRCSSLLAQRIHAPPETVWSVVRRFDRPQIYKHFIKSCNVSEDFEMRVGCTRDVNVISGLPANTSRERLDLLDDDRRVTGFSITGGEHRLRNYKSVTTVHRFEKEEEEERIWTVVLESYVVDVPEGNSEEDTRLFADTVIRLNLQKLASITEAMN; partner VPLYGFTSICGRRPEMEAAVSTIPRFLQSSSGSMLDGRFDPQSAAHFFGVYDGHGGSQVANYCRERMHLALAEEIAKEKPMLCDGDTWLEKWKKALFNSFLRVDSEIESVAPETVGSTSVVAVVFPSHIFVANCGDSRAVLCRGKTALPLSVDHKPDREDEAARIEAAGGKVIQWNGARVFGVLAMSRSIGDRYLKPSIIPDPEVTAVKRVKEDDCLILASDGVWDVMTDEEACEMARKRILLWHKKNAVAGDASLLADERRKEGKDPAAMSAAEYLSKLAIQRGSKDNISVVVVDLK
Substitution,relative binding score [%]
E151C,72.6
L112E,4.05
S63M,54.2
D95F,-2.94
T1D,72.5
D96L,3.8
H110A,5.53
L8N,24.8
T6G,77.1
A158S,18.7
D95H,-5
S27N,75.5
T17R,43.6

# Set 5
# Target: Sal-like protein 4, full length isoform B (SALL4, Homo sapiens, UniProt Q9UJQ4-2, residues 1-616)
# Technique: universal PBM
# Form: double-stranded DNA, one strand shown
# Medium: in vitro
# Tested at: not given
# Setting: 8-mer, flanks averaged, mean of replicates
# Direction: higher = stronger binding
Oligonucleotide,E-score
CAATACGA,0.252
GTCCTGAA,-0.167
CCTATTAA,0.206
ATAAACAA,0.357
AGAATTCT,0.108
CGATACAC,0.12
GATTTGGC,-0.00165
AGGACTTG,-0.145
AAGGGCCA,-0.13
CCTCGTCA,0.0266
CCGGAGAC,-0.212
ACTTCGGC,-0.0956
AACGCCGA,-0.0353
AGACTTAG,-0.087
GCGTTTTA,0.0308
ATGTGCCC,0.0777
ATAAAGCC,0.0894
CTGAATCC,-0.0469
CCCCCAAG,-0.126

# Set 6
# Target: Prothrombin, mature alpha-thrombin (F2, Homo sapiens, UniProt P00734)
# Technique: aptamer microarray, sandwich
# Form: DNA with 2'F-ANA
# Medium: in vitro
# Tested at: 200 nM
# Setting: whole 15-mer aptamer, many near background
# Together with: Cy3 exosite-II aptamer, 400 nM
# Direction: higher = stronger binding
# Oligonucleotide: GGTTGGTGTGGTTGG
Modification,mean fluorescence intensity
2'F-ANA at 1 3 4 6 8 9 10 11 12 13 14 15,53.9 a.u.
2'F-ANA at 1 4 7 10 14,66.3 a.u.
2'F-ANA at 1 3 4 6 10 12 15,85.2 a.u.
2'F-ANA at 1 2 3 5 6 9 13,52.9 a.u.
2'F-ANA at 2 3 4 5 8 10,65 a.u.
2'F-ANA at 4 11 15,252 a.u.
2'F-ANA at 1 2 6 10 12 14,48.9 a.u.
2'F-ANA at 4 5 7 8 10 11 15,64.7 a.u.
2'F-ANA at 1 2 4 5 9 10 13 14 15,50.8 a.u.
2'F-ANA at 1 4 5 7 8 12,118 a.u.
2'F-ANA at 1 4 5 9 10 13 14 15,47 a.u.
2'F-ANA at 1 2 3 4 8 9 11,165 a.u.
2'F-ANA at 1 4 11 14,47.3 a.u.
2'F-ANA at 3 4 7 8 12 13 14 15,416 a.u.
2'F-ANA at 3 4 5 8 10 14,50.7 a.u.
2'F-ANA at 1 2 3 5 9 11 13 14,43.9 a.u.
2'F-ANA at 1 7 9 10 13,48.7 a.u.
2'F-ANA at 1 9 11,160 a.u.

# Excerpt of the above (set 1):
Substitution,binding fitness [natural log]
A29K,-0.303
E33A,-0.165
M51C,-0.271
A29D,-0.204
A46S,-0.112
R30F,0.0494
K39Y,-0.776
Q55G,-0.722
